Experimental data gathered from unrelated publications.
Protocols differ between the studies behind these lines. Several values in a cell are separate wells, animals, samples, runs or records. ± gives the spread as reported.
Alpha-amylase: Alpha-amylase (Bos taurus, UniProt Q3MHH8)
FFAR4: Free fatty acid receptor 4 (FFAR4, Homo sapiens, UniProt Q5NUL3)
Chain of UniProt Q5NUL3 (whole entry, looked up): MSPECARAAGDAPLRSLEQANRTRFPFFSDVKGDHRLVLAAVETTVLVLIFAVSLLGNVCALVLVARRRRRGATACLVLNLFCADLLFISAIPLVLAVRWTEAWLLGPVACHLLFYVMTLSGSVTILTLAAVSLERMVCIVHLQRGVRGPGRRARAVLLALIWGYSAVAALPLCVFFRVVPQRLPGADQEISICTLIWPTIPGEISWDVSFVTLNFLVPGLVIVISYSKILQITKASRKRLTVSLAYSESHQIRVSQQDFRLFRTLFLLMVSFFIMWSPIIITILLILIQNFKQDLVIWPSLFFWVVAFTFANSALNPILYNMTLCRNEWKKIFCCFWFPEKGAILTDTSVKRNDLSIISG
Trypanothione synthetase: Trypanothione synthetase (Trypanosoma brucei brucei, UniProt Q8IEX1)
CAMKK2: Calcium/calmodulin-dependent protein kinase kinase 2 (CAMKK2, Homo sapiens, UniProt Q96RR4)
Chain of UniProt O43497 (whole entry, looked up): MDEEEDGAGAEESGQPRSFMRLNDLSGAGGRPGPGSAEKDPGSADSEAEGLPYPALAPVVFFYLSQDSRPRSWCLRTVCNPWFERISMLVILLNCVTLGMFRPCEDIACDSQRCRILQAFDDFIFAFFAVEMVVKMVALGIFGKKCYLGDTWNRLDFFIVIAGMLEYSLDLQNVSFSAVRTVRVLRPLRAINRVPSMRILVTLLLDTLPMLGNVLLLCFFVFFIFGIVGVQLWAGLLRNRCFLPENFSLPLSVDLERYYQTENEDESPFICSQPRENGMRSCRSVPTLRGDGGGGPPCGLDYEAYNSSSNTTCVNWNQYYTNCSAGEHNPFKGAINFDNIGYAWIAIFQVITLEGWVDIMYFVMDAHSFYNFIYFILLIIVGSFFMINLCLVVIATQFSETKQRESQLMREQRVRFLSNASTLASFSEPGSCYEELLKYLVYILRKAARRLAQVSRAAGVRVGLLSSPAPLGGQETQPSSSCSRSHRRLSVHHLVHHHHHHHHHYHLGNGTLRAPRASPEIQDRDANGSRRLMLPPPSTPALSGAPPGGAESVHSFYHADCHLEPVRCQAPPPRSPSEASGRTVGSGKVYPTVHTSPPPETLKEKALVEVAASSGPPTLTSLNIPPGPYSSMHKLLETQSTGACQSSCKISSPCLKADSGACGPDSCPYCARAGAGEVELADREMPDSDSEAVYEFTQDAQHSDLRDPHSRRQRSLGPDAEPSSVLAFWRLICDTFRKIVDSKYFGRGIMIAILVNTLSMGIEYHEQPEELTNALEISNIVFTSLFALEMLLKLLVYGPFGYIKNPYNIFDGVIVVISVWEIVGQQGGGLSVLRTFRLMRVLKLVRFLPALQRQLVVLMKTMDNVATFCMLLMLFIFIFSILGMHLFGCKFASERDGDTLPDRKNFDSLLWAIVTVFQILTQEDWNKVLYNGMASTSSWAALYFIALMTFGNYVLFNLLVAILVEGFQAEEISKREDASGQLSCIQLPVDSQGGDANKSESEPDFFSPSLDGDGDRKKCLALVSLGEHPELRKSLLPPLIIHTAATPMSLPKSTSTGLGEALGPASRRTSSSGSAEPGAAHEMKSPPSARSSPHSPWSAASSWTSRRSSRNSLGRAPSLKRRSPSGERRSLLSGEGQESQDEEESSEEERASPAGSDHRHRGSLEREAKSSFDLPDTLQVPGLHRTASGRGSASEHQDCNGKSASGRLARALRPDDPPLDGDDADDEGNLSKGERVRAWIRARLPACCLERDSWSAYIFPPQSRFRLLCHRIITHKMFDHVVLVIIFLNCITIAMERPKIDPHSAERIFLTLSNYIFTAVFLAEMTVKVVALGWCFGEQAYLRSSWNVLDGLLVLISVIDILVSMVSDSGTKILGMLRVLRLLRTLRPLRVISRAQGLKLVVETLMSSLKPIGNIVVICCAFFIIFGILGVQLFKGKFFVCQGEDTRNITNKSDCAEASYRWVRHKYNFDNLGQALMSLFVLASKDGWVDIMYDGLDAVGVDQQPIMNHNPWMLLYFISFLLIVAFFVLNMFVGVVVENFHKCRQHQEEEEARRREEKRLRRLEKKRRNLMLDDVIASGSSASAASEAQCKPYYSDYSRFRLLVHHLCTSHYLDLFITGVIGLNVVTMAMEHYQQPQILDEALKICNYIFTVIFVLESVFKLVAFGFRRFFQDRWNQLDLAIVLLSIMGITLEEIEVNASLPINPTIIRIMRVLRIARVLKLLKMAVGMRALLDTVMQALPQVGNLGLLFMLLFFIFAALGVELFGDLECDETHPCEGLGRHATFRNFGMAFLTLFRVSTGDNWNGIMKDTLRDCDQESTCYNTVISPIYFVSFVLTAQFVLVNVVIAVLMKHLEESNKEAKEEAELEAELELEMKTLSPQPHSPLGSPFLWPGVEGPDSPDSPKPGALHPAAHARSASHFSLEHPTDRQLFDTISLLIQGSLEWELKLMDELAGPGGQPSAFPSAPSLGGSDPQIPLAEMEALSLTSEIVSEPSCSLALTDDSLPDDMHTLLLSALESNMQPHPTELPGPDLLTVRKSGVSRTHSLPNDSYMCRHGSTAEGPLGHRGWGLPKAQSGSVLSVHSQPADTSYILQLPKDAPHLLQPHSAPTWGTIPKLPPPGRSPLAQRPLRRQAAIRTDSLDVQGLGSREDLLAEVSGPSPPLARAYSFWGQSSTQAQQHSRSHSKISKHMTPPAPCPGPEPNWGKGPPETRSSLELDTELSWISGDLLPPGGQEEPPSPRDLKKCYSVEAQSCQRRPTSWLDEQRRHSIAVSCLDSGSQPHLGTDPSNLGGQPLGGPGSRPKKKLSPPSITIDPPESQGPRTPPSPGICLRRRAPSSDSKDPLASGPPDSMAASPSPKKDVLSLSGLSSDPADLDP
Chain of UniProt P05164 (whole entry, looked up): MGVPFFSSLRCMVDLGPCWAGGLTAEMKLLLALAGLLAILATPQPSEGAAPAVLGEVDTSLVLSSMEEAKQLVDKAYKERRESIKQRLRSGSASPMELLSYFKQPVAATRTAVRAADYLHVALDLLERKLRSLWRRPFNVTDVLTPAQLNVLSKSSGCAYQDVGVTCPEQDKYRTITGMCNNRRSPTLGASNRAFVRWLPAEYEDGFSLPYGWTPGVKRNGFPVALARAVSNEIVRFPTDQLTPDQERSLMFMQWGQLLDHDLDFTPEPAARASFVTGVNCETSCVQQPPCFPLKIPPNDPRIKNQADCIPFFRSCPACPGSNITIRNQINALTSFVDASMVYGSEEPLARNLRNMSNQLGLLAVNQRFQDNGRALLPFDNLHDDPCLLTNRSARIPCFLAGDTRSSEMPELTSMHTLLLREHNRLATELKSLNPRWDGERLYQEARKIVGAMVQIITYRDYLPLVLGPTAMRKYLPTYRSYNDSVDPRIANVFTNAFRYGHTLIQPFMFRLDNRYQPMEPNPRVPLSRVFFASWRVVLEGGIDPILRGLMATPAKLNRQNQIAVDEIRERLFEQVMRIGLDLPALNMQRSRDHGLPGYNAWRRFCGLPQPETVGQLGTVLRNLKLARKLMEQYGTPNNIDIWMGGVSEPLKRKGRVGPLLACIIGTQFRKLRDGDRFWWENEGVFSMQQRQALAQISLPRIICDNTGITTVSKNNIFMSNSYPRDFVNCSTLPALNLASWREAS
Chain of UniProt Q96RR4 (whole entry, looked up): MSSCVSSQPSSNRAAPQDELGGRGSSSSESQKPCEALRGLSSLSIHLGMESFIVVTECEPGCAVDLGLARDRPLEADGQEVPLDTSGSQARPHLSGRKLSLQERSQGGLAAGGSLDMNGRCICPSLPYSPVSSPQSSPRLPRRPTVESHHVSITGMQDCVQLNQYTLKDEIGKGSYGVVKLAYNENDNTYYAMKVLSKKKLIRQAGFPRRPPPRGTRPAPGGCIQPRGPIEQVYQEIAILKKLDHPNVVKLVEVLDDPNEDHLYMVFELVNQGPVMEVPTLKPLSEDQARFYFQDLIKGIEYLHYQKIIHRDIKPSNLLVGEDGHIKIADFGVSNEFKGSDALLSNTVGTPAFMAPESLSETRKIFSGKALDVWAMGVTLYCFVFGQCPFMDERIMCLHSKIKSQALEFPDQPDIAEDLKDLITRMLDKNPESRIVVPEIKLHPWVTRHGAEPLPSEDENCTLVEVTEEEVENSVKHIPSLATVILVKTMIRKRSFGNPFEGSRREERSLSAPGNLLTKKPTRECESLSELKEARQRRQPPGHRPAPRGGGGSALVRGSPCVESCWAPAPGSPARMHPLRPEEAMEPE
Chain of UniProt P61073 (whole entry, looked up): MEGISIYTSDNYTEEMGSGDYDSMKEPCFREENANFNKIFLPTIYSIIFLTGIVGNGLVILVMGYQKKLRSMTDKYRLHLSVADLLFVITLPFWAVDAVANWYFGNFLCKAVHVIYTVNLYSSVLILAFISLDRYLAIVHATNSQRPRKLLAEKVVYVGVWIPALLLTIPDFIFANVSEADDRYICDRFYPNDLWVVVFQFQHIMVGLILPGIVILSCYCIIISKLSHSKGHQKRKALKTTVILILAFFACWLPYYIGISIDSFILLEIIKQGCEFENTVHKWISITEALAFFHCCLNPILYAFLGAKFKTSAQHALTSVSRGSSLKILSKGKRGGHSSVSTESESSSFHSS
Chain of UniProt P30874 (whole entry, looked up): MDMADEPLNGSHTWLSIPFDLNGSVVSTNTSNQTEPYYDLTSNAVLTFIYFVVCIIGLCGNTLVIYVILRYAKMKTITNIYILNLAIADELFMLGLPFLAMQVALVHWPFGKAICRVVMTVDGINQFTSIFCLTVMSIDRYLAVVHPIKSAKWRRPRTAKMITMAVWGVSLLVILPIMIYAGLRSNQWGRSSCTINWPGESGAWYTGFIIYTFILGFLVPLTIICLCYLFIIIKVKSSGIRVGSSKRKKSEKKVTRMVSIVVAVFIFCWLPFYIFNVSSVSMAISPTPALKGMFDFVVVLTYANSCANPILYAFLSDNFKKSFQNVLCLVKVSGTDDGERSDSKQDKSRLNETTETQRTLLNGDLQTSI

Structure (SMILES)	target or system	test	test system	setting	how to read	measurement	value
CC1=NN(c2cccc(C)c2)C(=O)C1=NNc1ccc(S(N)(=O)=O)cc1	Alpha-amylase	enzyme activity, inhibitor, glucose oxidase	–	10 µg/mL, together with: dextrin	–	inhibition	14.395 ± 0.000238%
CC[C@H]1[C@@H](O)[C@@H]2[C@H](CC[C@]3(C)[C@@H]([C@H](C)CCNC(=O)NS(=O)(=O)c4ccc(C(C)(C)C)cc4)CC[C@@H]23)[C@@]2(C)CC[C@@H](O)C[C@@H]12	ATP-dependent translocase ABCB1 (ABCB1, Homo sapiens, UniProt P08183)	–	human, plasma	dose not given, median, together with: quinidine	–	Tmax	4 h
O=C(O)CCCCCCCNc1cc(=O)[nH]c(=O)[nH]1	FFAR4	antagonist, β-arrestin recruitment	CHO cells	10 µM	–	inhibition	23 ± 7%
COc1ccc(-c2c(C)nn3c(N4CCN(c5ccccn5)CC4)cc(C)nc23)cc1OC	C-X-C chemokine receptor type 4 (CXCR4, Homo sapiens, UniProt P61073)	arrestin recruitment, antagonist, DiscoverX arrestin	–	30 µM	baseline: control	inhibition	-1.69% and -1.24%
O=c1cc(NCCOc2ccccc2)[nH]c(=O)[nH]1	FFAR4	antagonist, β-arrestin recruitment	CHO cells	10 µM, together with: 4 µM TUG-891	–	inhibition	27 ± 6%
C[C@H]1c2nn(C)cc2[C@H]2C[C@@H]1N(Cc1ccccc1)C[C@]2(C)O	Delta-type opioid receptor (Oprd1, Rattus norvegicus, UniProt P33533)	binding	rat brain	1 µM, together with: [3H]DPDPE	–	inhibition	0%
CC[C@]12CCCN3CCc4c(n(c5ccccc45)[C@@](O)(C(=O)OC)C1)[C@@H]32	Neuropeptide S receptor, isoform B (NPSR1, Homo sapiens, UniProt Q6W5P4)	beta-arrestin recruitment, antagonist, PathHunter chemiluminescence	–	20 µM, together with: agonist at EC80	–	inhibition	-15%
O=c1cc(N2CCC(Cc3ccccc3)CC2)[nH]c(=O)[nH]1	FFAR4	antagonist, β-arrestin recruitment	CHO cells	10 µM, together with: 4 µM TUG-891	–	inhibition	-13 ± 7%
CC1=NOC(=O)C1=NNc1ccc(S(N)(=O)=O)cc1	Alpha-amylase	enzyme activity, inhibitor, glucose oxidase	–	500 µg/mL, together with: dextrin	–	inhibition	36.3%
O=C(CN1C(=O)Cc2c([nH]c3ccc(Br)cc23)-c2ccc(Cl)cc21)Nc1ncco1	Trypanothione synthetase	enzyme activity	Trypanosoma brucei	30 µM	–	inhibition	12.2 ± 6.5%
CC1=NNC(=O)C1=NNc1ccc(S(N)(=O)=O)cc1	Alpha-amylase	enzyme activity, inhibitor, glucose oxidase	–	500 µg/mL, together with: dextrin	–	inhibition	34.7%
CN1CCN(c2ccc(Nc3ncc4cc(C#N)c(=O)n(C5CCCC5)c4n3)cc2)CC1	Cytoplasmic tyrosine-protein kinase BMX (BMX, Homo sapiens, UniProt P51813)	–	–	–	–	IC50	0.257 µM
CC(C)(C)c1ccc(CCNc2cc(=O)[nH]c(=O)[nH]2)cc1	FFAR4	antagonist, β-arrestin recruitment	CHO cells	10 µM	–	inhibition	-8 ± 12%
COc1cc(C(=O)NS(=O)(=O)c2ccccc2C)ccc1Cc1cn(C)c2ccc(NC(=O)OC3CCCC3)cc12	Volume-regulated anion channel subunit LRRC8C, part LRRC8A IL1 chimera (LRRC8C, Homo sapiens, UniProt Q8TDW0, E6A)	ion current, inhibitor, whole-cell patch clamp	HCT LRRC8-/- cells	0.03 µM, +100 mV	–	inhibition	8.27% and 15.6% and 11.6% and 27.5%
Cc1ccc(C(=O)Nc2ccc3ccccc3c2)o1	Voltage-dependent T-type calcium channel subunit alpha-1G (CACNA1G, Homo sapiens, UniProt O43497)	ion current, inhibitor, whole-cell patch clamp	–	10 µM	–	inhibition	2.9% and 14.7% and 17.4% and 14.8% and 8.9%
O=c1cc(NCCc2ccc(Cl)cc2)[nH]c(=O)[nH]1	FFAR4	antagonist, β-arrestin recruitment	CHO cells	10 µM	–	inhibition	10 ± 4%
CC[C@@H]1[C@H](F)C(=O)N[C@@H]1COc1nccc2cc(C(N)=O)c(OC)cc12	CAMKK2	ATP-site probe binding, ActivX profiling	THP-1 cell lysate	0.01 mM, Lys1 site	–	inhibition	-0.8%
CCNNC(=O)c1ccc(CN(CC(=O)NCc2ccccc2)C(=O)c2ccc(N(C)C)cc2)cc1	Matrix metalloproteinase-9 (MMP9, Homo sapiens, UniProt P14780)	enzyme activity	–	10 µM	–	inhibition	no inhibition
CCc1nn(C)c2nc(-c3ccc(C(=O)O)cc3)nc(NCc3ccc(F)cc3)c12	Dual specificity calcium/calmodulin-dependent 3',5'-cyclic nucleotide phosphodiesterase 1B (Homo sapiens, UniProt Q01064)	enzyme activity	–	10 µM, together with: [3H]cGMP	–	inhibition	18%
CC1=NN(c2cc(Cl)ccc2Cl)C(=O)C1=NNc1ccc(S(N)(=O)=O)cc1	Alpha-amylase	enzyme activity, inhibitor, glucose oxidase	–	50 µg/mL, together with: dextrin	–	inhibition	17.3%
CC(C)C[C@H](NC(=O)C[C@H](O)[C@H](CC(C)C)NC(=O)[C@H](Cc1c[nH]cn1)NC(=O)CNC(=O)[C@@H](NC(=O)[C@H](C)NC(=O)[C@H](Cc1c[nH]c2ccccc12)NC(=O)[C@H](CCC(N)=O)NC(=O)[C@@H](Cc1ccccc1)NC(=O)COCCOCCNC(=O)CN1CCN(CC(=O)O)CCN(CC(=O)O)CCN(CC(=O)O)CC1)C(C)C)C(N)=O [lutetium-177 labelled]	–	–	female BALB/c nu/nu mice, tumor	intravenous, 50 pmol, 24 h	–	tissue uptake	5 ± 1 %ID/g
O=c1cc(NCCCCCCCO)[nH]c(=O)[nH]1	FFAR4	antagonist, β-arrestin recruitment	CHO cells	10 µM	–	inhibition	11 ± 2%
O=C(CN1C(=O)Cc2c([nH]c3ccc(Br)cc23)-c2ccc(Cl)cc21)N1CCCC1	Trypanothione synthetase	enzyme activity, inhibitor, BIOMOL Green	–	30 µM	–	inhibition	9.8 ± 2.8%

Structure (SMILES)	target or system	test	test system	setting	how to read	measurement	value
CC(C)C[C@H](NC(=O)C[C@H](O)[C@H](CC(C)C)NC(=O)[C@H](Cc1c[nH]cn1)NC(=O)CNC(=O)[C@@H](NC(=O)[C@H](C)NC(=O)[C@H](Cc1c[nH]c2ccccc12)NC(=O)[C@H](CCC(N)=O)NC(=O)[C@@H](Cc1ccccc1)NC(=O)COCCOCCNC(=O)CCC(C(=O)O)N1CCN(CC(=O)O)CCN(CC(=O)O)CCN(CC(=O)O)CC1)C(C)C)C(N)=O (stereo partly shown) [lutetium-177 labelled]	–	–	BALB/c nu/nu mice, bone	intravenous, 500 pmol, 1 h, together with: PA 300 µg	–	tissue uptake	0.2 ± 0.09 %ID/g
CN1CCN(c2cc(-c3ccncc3)c(-c3ccc4ccccc4c3)nn2)CC1	Somatostatin receptor type 2 (SSTR2, Homo sapiens, UniProt P30874)	antagonist, FLIPR	–	10 µM	–	inhibition	28.7%
O=C(O)CCCCCNc1cc(=O)[nH]c(=O)[nH]1	FFAR4	antagonist, β-arrestin recruitment	CHO cells	10 µM, together with: 4 µM TUG-891	–	inhibition	16 ± 2%
N#Cc1ccc2c(c1)[C@H]1CCCN(C(=O)c3ccc4[nH]cnc4c3)[C@H]1C2	–	–	human	10 mg, end of trial	baseline: baseline	cortisol level change	-117 nmol/L
CC1(C)CCC(c2ccc(Cl)cc2)=C(CN2CCN(c3ccc(C(=O)NS(=O)(=O)c4ccc(N[C@H](CCN5CCOCC5)CSc5ccccc5)c(S(=O)(=O)C(F)(F)F)c4)cc3)CC2)C1	C2BBe1 monolayers	drug in secreted lipoproteins	–	50 % saturated solubility, together with: oleic acid/2-monoolein micelles	baseline: taurocholate/phosphatidylcholine micelles	max increase of Papp	1.3 fold
CC1=NN(c2ccc(Cl)cc2)C(=O)C1=NNc1ccc(S(N)(=O)=O)cc1	Alpha-amylase	enzyme activity, inhibitor, glucose oxidase	–	10 µg/mL, together with: dextrin	–	inhibition	3.8388 ± 0.000263%
Cc1nn(-c2nc3ccccc3s2)c(O)c1C(c1ccccc1C(=O)O)c1c(C)nn(-c2nc3ccccc3s2)c1O	Cyclic GMP-AMP synthase (CGAS, Homo sapiens, UniProt Q8N884)	enzyme activity, inhibitor, pyrophosphatase-coupled	–	100 µM, 1.5 h, together with: HT-DNA	–	inhibition	93.8%
Cn1cc(-c2ccc(-c3cncc(Cl)c3N3CCC4(CCNC4=O)CC3)cc2)cn1	COLO 205	gene expression, microarray, item: EPAS1 mRNA	–	concentration not given, 6 h	baseline: untreated cells	log2 fold change	6.58
COc1ccc(F)cc1C(=O)NCc1ccc(-c2nn([C@@H](C)C(F)(F)F)c(N)c2C(N)=O)cc1	STE20/SPS1-related proline-alanine-rich protein kinase (STK39, Homo sapiens, UniProt Q9UEW8)	target engagement, competitive chemoproteomics	human PBMCs	0.1 µM	–	inhibition	17.3%
[2H]c1cc(C)c(NC(=O)c2cnc(Nc3cc(N4CCC(O)CC4)nc(C)n3)s2)c(Cl)c1	Tyrosine-protein kinase Lck (LCK, Homo sapiens, UniProt P06239)	–	–	0.001 µM	–	inhibition	> 50%
CC(C)(C(=O)N1CCOc2c(C#N)cncc2C1)C(F)F	–	item: renal and urinary disorders	human	oral, 10 mg, CSF pharmacokinetic cohort	–	subjects with adverse event	0%
CN(C(=O)n1cnc(-c2ccc[n+]([O-])c2)c1)C1CCCCC1	Amine oxidase [flavin-containing] A (Maoa, Rattus norvegicus, UniProt P21396)	–	–	10 µM	–	inhibition	1.02%
Cc1cc(Nc2ccc(S(F)(F)(F)(F)F)cc2)n2nc(C(C)(F)F)nc2n1	Plasmodium vivax	–	human Plasmodium vivax malaria patients	oral, 400 mg	–	patients with any adverse event	80%
CC1=NN(c2ccc(F)cc2)C(=O)C1=NNc1ccc(S(N)(=O)=O)cc1	Alpha-amylase	enzyme activity, inhibitor, glucose oxidase	–	200 µg/mL, together with: dextrin	–	inhibition	13.2%
CCN1CCN(Cc2ccc(NC(=O)c3ccc(C)c(/C=C/c4cnc5[nH]ccc5c4OC)c3)cc2C(F)(F)F)CC1	CAMKK2	–	A-375	0.05 µM	–	inhibition	-23.4%
CCCCCCCCCCNc1cc(=O)[nH]c(=O)[nH]1	FFAR4	antagonist, β-arrestin recruitment	CHO cells	10 µM, together with: 4 µM TUG-891	–	inhibition	32 ± 9%
NC(=O)c1cnc2ccc(S(=O)(=O)c3ccccc3)cc2c1Nc1ccc(O)cc1	Glideosome-associated protein 50 (GAP50, Plasmodium falciparum, UniProt Q8I2X3)	binding, surface plasmon resonance	–	1:1 binding model	–	Kd	23.7 µM
COc1cc(Cl)c(C(=O)N[C@@H](CN[C@H]2CC[C@@H](N)CC2)Cc2ccc(C#N)cc2)cc1-c1ccc(CN[C@H](C)c2ccc(C)cc2)o1	Histamine H1 receptor (HRH1, Homo sapiens, UniProt P35367)	agonist response, antagonist	human cells	10 µM, H1 antagonist	–	inhibition	18%
COC(=O)[C@H]1[C@@H](O)[C@@]2(O)c3c(OC)cc(O[C@@H]4O[C@@H]([C@H](O)CO)CO[C@H]4OC)cc3O[C@@]2(c2ccc(OC)cc2)[C@@H]1c1ccccc1	–	cap-dependent translation, inhibitor, firefly luciferase bicistronic reporter	Krebs-2 cell extract	concentration not given	–	inhibition	inhibited
OC(CCN1CCCCC1)(c1ccccc1)C1CC2C=CC1C2 (stereo not shown)	–	resting-state EEG	healthy elderly humans	oral, 4 mg, eyes open, LS mean	–	EEG gamma power, O2 Pz	0.8 µV²
NC/C(=C\F)COc1cccc(Cn2c(=S)[nH]c(=O)c3[nH]cnc32)c1	Myeloperoxidase (MPO, Homo sapiens, UniProt P05164)	enzyme activity	–	1.667 µM	–	inhibition	98.8% and 99.2% and 99.4% and 99%
CC1=NNC(=S)NC(=O)C1/N=N/c1ccc(S(N)(=O)=O)cc1 (stereo not shown)	Alpha-amylase	enzyme activity, inhibitor, glucose oxidase	–	10 µg/mL, together with: dextrin	–	inhibition	11.9 ± 0.000742%
Oc1cc(O)c2c(c1)O[C@H](c1cc(O)c(O)c(O)c1)[C@H](O)C2	Ubiquitin carboxyl-terminal hydrolase 51 (USP51, Homo sapiens, UniProt Q70EK9)	inhibitor	–	1 µM, 1 h preincubation, together with: Ub-AMC 250 nM	–	inhibition	91%

Repeated from above:
Structure (SMILES)	target or system	test	test system	setting	how to read	measurement	value
CC[C@H]1[C@@H](O)[C@@H]2[C@H](CC[C@]3(C)[C@@H]([C@H](C)CCNC(=O)NS(=O)(=O)c4ccc(C(C)(C)C)cc4)CC[C@@H]23)[C@@]2(C)CC[C@@H](O)C[C@@H]12	ATP-dependent translocase ABCB1 (ABCB1, Homo sapiens, UniProt P08183)	–	human, plasma	dose not given, median, together with: quinidine	–	Tmax	4 h
O=C(O)CCCCCCCNc1cc(=O)[nH]c(=O)[nH]1	FFAR4	antagonist, β-arrestin recruitment	CHO cells	10 µM	–	inhibition	23 ± 7%
COc1ccc(-c2c(C)nn3c(N4CCN(c5ccccn5)CC4)cc(C)nc23)cc1OC	C-X-C chemokine receptor type 4 (CXCR4, Homo sapiens, UniProt P61073)	arrestin recruitment, antagonist, DiscoverX arrestin	–	30 µM	baseline: control	inhibition	-1.69% and -1.24%
O=c1cc(NCCOc2ccccc2)[nH]c(=O)[nH]1	FFAR4	antagonist, β-arrestin recruitment	CHO cells	10 µM, together with: 4 µM TUG-891	–	inhibition	27 ± 6%
